{"data": "Measurements collected from several papers", "note": "Parts stem from different laboratories: compare values within a part only. Several values in a cell are separate wells, animals, samples, runs or records.", "sequence of UniProt P22607 (whole entry, looked up)": "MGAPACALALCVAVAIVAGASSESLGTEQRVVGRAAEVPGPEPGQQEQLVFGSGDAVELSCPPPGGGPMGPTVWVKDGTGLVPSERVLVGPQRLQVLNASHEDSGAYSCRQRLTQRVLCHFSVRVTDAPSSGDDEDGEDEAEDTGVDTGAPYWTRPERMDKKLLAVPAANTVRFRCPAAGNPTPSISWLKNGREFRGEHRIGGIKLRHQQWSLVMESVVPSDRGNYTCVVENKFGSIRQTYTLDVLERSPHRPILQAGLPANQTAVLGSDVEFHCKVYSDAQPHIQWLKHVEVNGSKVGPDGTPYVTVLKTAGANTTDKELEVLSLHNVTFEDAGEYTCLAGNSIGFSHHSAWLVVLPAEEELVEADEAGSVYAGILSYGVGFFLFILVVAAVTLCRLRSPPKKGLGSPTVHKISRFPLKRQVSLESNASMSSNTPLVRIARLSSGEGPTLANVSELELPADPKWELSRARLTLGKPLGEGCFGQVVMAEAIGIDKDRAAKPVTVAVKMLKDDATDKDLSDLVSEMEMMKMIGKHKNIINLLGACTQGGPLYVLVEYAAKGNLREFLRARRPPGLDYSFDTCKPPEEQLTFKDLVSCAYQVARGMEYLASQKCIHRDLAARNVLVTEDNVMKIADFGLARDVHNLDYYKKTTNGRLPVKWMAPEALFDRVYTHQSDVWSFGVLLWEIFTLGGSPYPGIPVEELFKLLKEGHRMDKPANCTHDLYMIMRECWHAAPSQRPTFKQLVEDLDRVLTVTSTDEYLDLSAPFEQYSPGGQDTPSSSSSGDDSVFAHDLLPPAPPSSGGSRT", "sequence of UniProt P10398 (whole entry, looked up)": "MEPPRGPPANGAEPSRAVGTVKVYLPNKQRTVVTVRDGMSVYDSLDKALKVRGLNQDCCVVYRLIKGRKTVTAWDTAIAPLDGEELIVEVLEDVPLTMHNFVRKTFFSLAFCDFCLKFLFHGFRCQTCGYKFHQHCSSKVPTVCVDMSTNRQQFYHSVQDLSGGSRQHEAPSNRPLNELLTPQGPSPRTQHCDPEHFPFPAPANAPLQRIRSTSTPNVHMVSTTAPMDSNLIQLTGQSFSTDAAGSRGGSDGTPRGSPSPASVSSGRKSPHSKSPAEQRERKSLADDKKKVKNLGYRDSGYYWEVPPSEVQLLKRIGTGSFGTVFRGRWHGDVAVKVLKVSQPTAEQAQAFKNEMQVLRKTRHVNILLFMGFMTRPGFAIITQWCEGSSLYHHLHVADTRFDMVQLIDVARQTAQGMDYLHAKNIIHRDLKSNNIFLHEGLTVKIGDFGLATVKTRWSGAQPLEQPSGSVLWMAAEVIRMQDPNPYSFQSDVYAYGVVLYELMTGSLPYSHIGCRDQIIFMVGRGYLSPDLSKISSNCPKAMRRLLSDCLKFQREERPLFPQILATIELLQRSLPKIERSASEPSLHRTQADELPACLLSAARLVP", "sequence of UniProt Q8TBX8 (whole entry, looked up)": "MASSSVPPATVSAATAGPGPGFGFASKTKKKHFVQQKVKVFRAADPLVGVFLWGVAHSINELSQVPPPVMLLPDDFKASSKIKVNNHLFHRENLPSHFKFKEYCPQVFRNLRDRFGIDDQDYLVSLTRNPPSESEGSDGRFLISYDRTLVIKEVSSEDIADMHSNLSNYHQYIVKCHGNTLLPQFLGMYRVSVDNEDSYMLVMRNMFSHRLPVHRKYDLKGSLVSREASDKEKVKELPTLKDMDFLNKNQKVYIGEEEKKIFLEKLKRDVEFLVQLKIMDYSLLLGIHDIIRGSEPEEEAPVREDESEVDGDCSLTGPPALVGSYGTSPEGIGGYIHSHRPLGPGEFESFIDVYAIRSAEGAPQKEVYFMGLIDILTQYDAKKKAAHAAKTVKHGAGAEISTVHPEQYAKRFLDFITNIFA", "sequence of UniProt Q12866 (whole entry, looked up)": "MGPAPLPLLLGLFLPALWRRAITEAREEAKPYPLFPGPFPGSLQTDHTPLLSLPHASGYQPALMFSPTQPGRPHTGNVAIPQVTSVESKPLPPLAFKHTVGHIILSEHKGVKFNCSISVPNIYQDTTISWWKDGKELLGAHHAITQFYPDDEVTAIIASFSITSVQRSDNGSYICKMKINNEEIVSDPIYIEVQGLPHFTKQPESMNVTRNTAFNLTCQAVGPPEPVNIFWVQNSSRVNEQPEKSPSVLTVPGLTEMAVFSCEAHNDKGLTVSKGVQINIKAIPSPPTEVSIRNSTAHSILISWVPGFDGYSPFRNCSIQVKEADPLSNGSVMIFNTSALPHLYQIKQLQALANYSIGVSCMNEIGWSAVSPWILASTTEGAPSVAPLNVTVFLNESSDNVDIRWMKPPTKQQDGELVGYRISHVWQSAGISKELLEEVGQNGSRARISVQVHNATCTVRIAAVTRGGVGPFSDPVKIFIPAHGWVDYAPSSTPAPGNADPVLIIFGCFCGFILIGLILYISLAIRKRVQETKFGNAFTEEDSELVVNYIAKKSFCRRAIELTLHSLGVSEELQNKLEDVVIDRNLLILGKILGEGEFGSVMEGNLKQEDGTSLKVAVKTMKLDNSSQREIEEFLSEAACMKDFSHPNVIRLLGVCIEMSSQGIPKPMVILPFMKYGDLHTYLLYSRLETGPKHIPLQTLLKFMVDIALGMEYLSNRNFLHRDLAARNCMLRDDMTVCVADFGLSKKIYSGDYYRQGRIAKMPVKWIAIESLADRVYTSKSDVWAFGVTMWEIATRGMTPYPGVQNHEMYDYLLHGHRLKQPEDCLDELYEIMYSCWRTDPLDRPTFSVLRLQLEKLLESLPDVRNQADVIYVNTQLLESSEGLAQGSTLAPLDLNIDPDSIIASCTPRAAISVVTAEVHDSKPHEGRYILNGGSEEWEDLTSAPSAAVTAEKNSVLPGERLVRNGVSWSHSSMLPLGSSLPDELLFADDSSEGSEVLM", "sequence of UniProt P52333 (whole entry, looked up)": "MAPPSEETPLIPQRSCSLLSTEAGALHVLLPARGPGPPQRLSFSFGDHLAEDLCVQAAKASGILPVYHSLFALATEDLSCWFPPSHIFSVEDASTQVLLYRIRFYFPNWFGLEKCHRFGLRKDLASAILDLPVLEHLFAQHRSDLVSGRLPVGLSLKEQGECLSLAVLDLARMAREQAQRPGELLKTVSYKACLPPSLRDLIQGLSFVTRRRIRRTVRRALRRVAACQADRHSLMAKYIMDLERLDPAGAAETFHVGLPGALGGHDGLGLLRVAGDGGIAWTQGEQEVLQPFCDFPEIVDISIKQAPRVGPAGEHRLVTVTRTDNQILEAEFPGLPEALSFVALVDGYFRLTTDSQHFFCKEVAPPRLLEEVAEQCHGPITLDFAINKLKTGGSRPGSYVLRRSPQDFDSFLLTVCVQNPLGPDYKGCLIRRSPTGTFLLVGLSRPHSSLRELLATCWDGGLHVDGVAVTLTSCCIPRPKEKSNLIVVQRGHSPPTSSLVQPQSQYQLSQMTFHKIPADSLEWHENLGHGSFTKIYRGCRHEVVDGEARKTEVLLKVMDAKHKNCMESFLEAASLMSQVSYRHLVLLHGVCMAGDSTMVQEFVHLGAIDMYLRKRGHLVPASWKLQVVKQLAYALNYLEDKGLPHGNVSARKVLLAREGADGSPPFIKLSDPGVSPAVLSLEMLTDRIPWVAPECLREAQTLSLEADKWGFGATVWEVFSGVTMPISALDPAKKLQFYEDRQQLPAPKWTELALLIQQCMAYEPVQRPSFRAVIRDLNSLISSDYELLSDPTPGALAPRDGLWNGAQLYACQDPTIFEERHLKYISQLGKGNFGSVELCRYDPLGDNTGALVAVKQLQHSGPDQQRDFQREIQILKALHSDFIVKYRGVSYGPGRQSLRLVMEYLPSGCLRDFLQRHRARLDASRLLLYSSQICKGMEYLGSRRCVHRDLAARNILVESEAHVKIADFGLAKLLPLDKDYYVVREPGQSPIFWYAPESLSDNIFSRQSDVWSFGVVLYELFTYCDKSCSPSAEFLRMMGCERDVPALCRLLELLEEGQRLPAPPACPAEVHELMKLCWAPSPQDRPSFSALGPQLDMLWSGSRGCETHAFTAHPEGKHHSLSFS", "sequence of UniProt Q99558 (whole entry, looked up)": "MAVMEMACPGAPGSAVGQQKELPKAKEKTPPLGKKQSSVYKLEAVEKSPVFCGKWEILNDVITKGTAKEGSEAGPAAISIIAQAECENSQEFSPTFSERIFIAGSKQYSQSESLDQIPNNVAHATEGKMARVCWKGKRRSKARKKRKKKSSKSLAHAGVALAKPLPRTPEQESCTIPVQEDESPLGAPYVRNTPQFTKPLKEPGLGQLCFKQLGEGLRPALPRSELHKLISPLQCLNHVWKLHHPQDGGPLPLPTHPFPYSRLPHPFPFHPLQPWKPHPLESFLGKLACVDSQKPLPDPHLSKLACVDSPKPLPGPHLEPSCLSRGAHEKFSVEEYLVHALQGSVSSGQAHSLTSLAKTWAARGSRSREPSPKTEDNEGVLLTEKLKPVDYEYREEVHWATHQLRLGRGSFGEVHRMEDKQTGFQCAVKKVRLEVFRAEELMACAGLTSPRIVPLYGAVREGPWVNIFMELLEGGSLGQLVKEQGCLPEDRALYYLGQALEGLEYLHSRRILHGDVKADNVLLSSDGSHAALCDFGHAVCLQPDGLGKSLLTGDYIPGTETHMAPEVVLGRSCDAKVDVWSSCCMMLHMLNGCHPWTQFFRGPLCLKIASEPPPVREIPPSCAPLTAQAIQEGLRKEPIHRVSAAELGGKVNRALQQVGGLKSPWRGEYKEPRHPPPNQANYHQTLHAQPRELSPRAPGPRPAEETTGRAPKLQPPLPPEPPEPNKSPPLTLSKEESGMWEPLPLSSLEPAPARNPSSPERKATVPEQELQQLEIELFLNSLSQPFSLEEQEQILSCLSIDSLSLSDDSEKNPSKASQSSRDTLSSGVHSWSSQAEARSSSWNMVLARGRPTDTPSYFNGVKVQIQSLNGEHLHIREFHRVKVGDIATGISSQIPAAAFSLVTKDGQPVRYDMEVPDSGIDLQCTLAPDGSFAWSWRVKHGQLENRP"}
{"data": "Study 1", "SMILES": "O=C(NC[C@@H]1[C@H]2CN(C(=O)OCc3cc(C(F)(F)F)cc(C(F)(F)F)c3)C[C@@H]12)c1ccc2[nH]nnc2c1", "effect on": "cell-free assay", "technique": "competition with immobilised ligand", "concentration": "1 µM"}
{"target": "Phosphatidylinositol 5-phosphate 4-kinase type-2 gamma (PIP4K2C, Homo sapiens, UniProt Q8TBX8)", "remaining binding [%]": 100}
{"target": "Mast/stem cell growth factor receptor Kit, autoinhibited (KIT, Homo sapiens, UniProt P10721)", "remaining binding [%]": 90}
{"target": "Transient receptor potential cation channel subfamily M member 6 (TRPM6, Homo sapiens, UniProt Q9BX84)", "remaining binding [%]": 92}
{"data": "Study 2", "SMILES": "CC(C)n1cnc2c(Nc3cccc(Cl)c3)nc(NCCO)nc21", "effect on": "enzyme activity", "mode": "inhibitor", "concentration": "0.5 µM", "relative to": "control"}
{"target": "Tyrosine-protein kinase Mer (MERTK, Homo sapiens, UniProt Q12866)", "remaining activity": "89.7%"}
{"target": "Angiopoietin-1 receptor (TEK, Homo sapiens, UniProt Q02763)", "remaining activity": "97.4%"}
{"target": "Serine/threonine-protein kinase A-Raf (ARAF, Homo sapiens, UniProt P10398)", "remaining activity": "107%"}
{"target": "Serine/threonine-protein kinase TBK1 (TBK1, Homo sapiens, UniProt Q9UHD2)", "remaining activity": "89.2%"}
{"target": "Dual specificity mitogen-activated protein kinase kinase 2 (MAP2K2, Homo sapiens, UniProt P36507)", "remaining activity": "97.6%"}
{"target": "Mitogen-activated protein kinase kinase kinase 14 (MAP3K14, Homo sapiens, UniProt Q99558)", "remaining activity": "97.4%"}
{"target": "Tyrosine-protein kinase JAK3 (JAK3, Homo sapiens, UniProt P52333)", "remaining activity": "24.7%"}
{"target": "Fibroblast growth factor receptor 3 (FGFR3, Homo sapiens, UniProt P22607)", "remaining activity": "95.1%"}
{"target": "Rhodopsin kinase GRK7 (GRK7, Homo sapiens, UniProt Q8WTQ7)", "remaining activity": "88.7%"}
{"target": "Casein kinase I isoform gamma-3 (CSNK1G3, Homo sapiens, UniProt Q9Y6M4)", "remaining activity": "6.89%"}
{"target": "Mitogen-activated protein kinase kinase kinase 5 (MAP3K5, Homo sapiens, UniProt Q99683)", "remaining activity": "114%"}
{"target": "Macrophage-stimulating protein receptor (MST1R, Homo sapiens, UniProt Q04912)", "remaining activity": "101%"}
{"target": "Wee1-like protein kinase (WEE1, Homo sapiens, UniProt P30291)", "remaining activity": "98.9%"}
{"target": "Activin receptor type-1B (ACVR1B, Homo sapiens, UniProt P36896)", "remaining activity": "101%"}
{"data": "Study 3", "species": "human", "medium": "microsomes or S9", "concentration": "2 µM", "time": "0.5 h"}
{"SMILES": "COc1cc(=O)[nH]cc1C(=O)N1CCCC(c2cnn(C)c2)C1 (centres unmarked)", "remaining compound [%]": 76.1}
{"SMILES": "CC(Cc1ccsc1)NC(=O)c1cccc2c1OC(C)C(=O)N2 (centres unmarked)", "remaining compound [%]": 11}
{"SMILES": "O=C(c1c(-c2ccccc2)cc(=O)n2c1CCC2)N1CCCC1", "remaining compound [%]": 83.7}
{"data": "Study 4", "target": "Histone acetyltransferase KAT6A, winged helix 2, GST fusion (KAT6A, Homo sapiens, UniProt Q92794, residues 85-181)", "technique": "protein binding microarray", "molecule type": "double-stranded DNA, one strand shown", "medium": "in vitro", "concentration": "not given", "setting": "8-mer, flanks averaged, mean of 2 arrays, mostly near background", "relative to": "not given", "reading": "higher = stronger binding", "Target sequence (chain)": "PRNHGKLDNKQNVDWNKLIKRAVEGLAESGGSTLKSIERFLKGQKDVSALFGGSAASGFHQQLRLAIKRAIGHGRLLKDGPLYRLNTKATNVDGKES"}
{"Oligonucleotide": "AACCTCTT", "E-score": 0.0918}
{"Oligonucleotide": "CGTAAGGA", "E-score": -0.182}
{"Oligonucleotide": "CTTAACCC", "E-score": 0.0471}
{"Oligonucleotide": "CAACACCA", "E-score": 0.0242}
{"Oligonucleotide": "AAATCCAA", "E-score": -0.0726}
{"Oligonucleotide": "GACTCCAC", "E-score": -0.199}
{"Oligonucleotide": "AGGCTCCC", "E-score": 0.0333}
{"Oligonucleotide": "GCGCTGGA", "E-score": 0.167}
{"data": "Study 5", "cell line": "HaCaT", "concentration": "100 µM", "time": "36 h"}
{"Compound": "O=C(O[C@H]1C[N+]2(CCCOc3ccccc3)CCC1CC2)C(O)(c1cccs1)c1cccs1", "viability [%]": 93}
{"Compound": "CCOC(=O)CC(=O)N1CCSC1COc1ccccc1OC (centres unmarked)", "viability [%]": 89.7}
{"Compound": "Cc1c(-c2ccccc2)oc2c(C(=O)OCCN3CCCCC3)cccc2c1=O", "viability [%]": 28.1}
{"data": "Study 6", "cell line": "mouse MPNST tumor cells", "technique": "high-content immunofluorescence imaging", "refers to": "nuclear SOX9", "concentration": "10 µM", "time": "12 h", "setting": "mean of 2 replicates", "relative to": "DMSO control", "reading": "higher = more nuclear SOX9"}
{"SMILES": "CC(=O)O[C@H]1C[C@@H]2CC[C@@H]3[C@H](CC[C@@]4(C)[C@H]3C[C@H]([N+]3(C)CCCCC3)[C@@H]4OC(C)=O)[C@@]2(C)C[C@@H]1N1CCCCC1", "nuclear SOX9 intensity": "104 % of DMSO"}
{"SMILES": "NS(=O)(=O)c1cc(Cl)c(Cl)c(S(N)(=O)=O)c1", "nuclear SOX9 intensity": "95.1 % of DMSO and 104 % of DMSO"}
{"SMILES": "N[C@@H](C(=O)N[C@@H]1C(=O)N2C(C(=O)O)=C(Cl)CC[C@H]12)c1ccccc1", "nuclear SOX9 intensity": "95.3 % of DMSO"}
{"SMILES": "CC#CCOc1ccc(S(=O)(=O)N2CCSC(C)(C)[C@@H]2C(=O)NO)cc1", "nuclear SOX9 intensity": "83.3 % of DMSO"}
